Measured values collected from several papers.
Numbered parts are unrelated; each lists some results of a single study. Changes are numbered by the printed parent chain.

Block 1
Target: Ras GTPase-activating protein-binding protein 1, RRM domain (G3BP1, Homo sapiens, UniProt Q13283)
Chain of UniProt Q13283 (whole entry, looked up): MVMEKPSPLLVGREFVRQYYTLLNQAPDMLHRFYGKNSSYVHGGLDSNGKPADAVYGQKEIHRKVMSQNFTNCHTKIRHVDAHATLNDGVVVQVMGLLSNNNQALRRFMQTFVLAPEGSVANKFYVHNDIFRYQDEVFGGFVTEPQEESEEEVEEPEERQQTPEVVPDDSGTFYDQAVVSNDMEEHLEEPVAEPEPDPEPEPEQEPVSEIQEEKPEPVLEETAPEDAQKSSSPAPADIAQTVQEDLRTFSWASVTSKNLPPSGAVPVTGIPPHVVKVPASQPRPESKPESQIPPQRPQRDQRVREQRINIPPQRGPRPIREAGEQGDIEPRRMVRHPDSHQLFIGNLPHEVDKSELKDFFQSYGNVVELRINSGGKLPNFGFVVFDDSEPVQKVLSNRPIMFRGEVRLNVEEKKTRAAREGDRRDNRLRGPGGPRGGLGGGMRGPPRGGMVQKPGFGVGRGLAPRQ
Method: RNA Bind-n-Seq
Molecule type: RNA
Medium: in vitro
Concentration: 1 µM
Setting: whole 134-nt RNA, ends assumed
Together with: 150 mM KCl
Reference: input library
Direction: higher = stronger binding
Quantity: log2 enrichment
Shared flanks, not repeated: GGGAGUUCUACAGUCCGACGAUC … UGGAAUUCUCGGGUGUCAAGG
CCUCAAGUCCUGUGCUACACAUCGUAUGUACCGAAUCGGUGGAGGAAAAAGGAAAGUAUUAUGUUACGCCGUUCGGAUCUGCACUUCCAG: -0.137
CAAGUCCUGUGCUACACAUCGUAUGUACCGAAUCGGGGUUUGGUUUGGGGUUUGGAAAGUAUUAUGUUACGCCGUUCGGAUCUGCACUUC: -0.417
UUAUUGAACUGACAAGGUCCUCCCUGUGUUGUAGCAAGGACCAGACUGGCUUGAGCUCUCUGAGAUGACCGAGCAGCCAGACUAUGACCU: 0.211
ACCAUGCAGGUGGGCAUCUUUGGGAAGUGGGGCAAGGGGGGGAUAGGGAGGGGGGUAACACUUUGGGUACAGGUGGUCCCAGGUCGUUUC: 0.858
GUCCUGUGCUACACAUCGUAUGUACCGAAUCGGGGUUUUUGGGGAAAGGGGAAAGGGGAAAGUAUUAUGUUACGCCGUUCGGAUCUGCAC: 1.8
CCUGUGCUACACAUCGUAUGUACCGAAUCGGGCCCCCCCGGCCCCCCCGGGCCCCCCCGGAAAGUAUUAUGUUACGCCGUUCGGAUCUGC: -0.614
UCCUGUGCUACACAUCGUAUGUACCGAAUCAAAUUUUUUUAAACCCAAAUUUUUUUAAAAAAGUAUUAUGUUACGCCGUUCGGAUCUGCA: -0.595
CAAGUCCUGUGCUACACAUCGUAUGUACCGAAUCGGGCCCGGGCCCGGCCCGGGGAAAGUAUUAUGUUACGCCGUUCGGAUCUGCACUUC: -0.73

Block 2
Target: PABPC1L2, full length, GST fusion (mouse, UniProt A0ABA7IW68)
Method: RNAcompete
Molecule type: RNA
Medium: in vitro
Concentration: 20 nM
Setting: 7-mer, probes averaged, single round
Reference: mean of 7-mers
Direction: higher = stronger binding
Quantity: 7-mer Z-score
Target sequence (chain): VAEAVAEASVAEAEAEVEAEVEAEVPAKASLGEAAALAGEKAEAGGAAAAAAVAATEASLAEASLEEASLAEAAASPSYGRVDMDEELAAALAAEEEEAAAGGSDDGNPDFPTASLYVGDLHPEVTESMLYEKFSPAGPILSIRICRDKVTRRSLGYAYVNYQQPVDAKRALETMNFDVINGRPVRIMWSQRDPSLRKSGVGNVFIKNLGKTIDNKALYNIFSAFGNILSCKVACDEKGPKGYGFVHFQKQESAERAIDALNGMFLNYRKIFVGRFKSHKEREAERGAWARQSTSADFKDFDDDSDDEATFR
AUCUUGC: -0.286
UGUUCCA: -0.304
UAUCUUA: -0.15
GCACAUA: 0.00617
UUAGACA: -0.0192
CACCUUA: -0.253
CGUAUUU: -0.331
GCGUAAC: -0.249

Block 3
Target: CCNE2, cyclin fold, Cln2 fusion (human)
Method: yeast growth competition, sequencing
Medium: yeast
Setting: strong parent motif
Reference: not given
Direction: higher = stronger binding
Quantity: normalised enrichment score
Starting sequence: viral docking peptide; TSVRRALFTGGSD
A6F: 0.794
T9S: 3.23
G10V: 3.39
R5W: 0.459
R4E: 0.138
G10H: 2.97
R4A: 1.06
F8G: 0.259
R5S: 0.311
T9C: 3.11
G10K: 2.81
F8H: 0.262
A6G: 0.874
G11K: 3.41
G11A: 3.87
S2I: 1.53
A6K: 6.16
F8L: 0.319
R5A L7A: -0.0973
T9M: 3.41
T9F: 3.83

Block 4
Target: CEP164, C-terminal peptide (human)
Method: DHFR complementation, deep sequencing
Medium: yeast
Setting: single substitutions, model-inferred values
Reference: wild type
Direction: higher = weaker binding
Quantity: binding free energy change
Starting sequence: PDZK1, PDZ domain 2 (human); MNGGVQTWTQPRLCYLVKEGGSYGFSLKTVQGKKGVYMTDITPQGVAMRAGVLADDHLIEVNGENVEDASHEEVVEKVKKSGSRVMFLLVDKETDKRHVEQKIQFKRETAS; partner HNRVKVYRF
Y23R: 1.35 kcal/mol
D40P: 0.463 kcal/mol
S81A: 0.0403 kcal/mol
A50Q: 0.273 kcal/mol
L89K: 1.74 kcal/mol
E60M: 0.134 kcal/mol
L27G: 1.13 kcal/mol
Q10F: 0.384 kcal/mol

For quick reference, copied from above (block 2):
UGUUCCA: -0.304
UAUCUUA: -0.15
GCACAUA: 0.00617
